Published values from different studies.
Numbered parts are unrelated; each lists some results of a single study. Positions count from the first letter of the parent shown.
Chain of UniProt P04629 (whole entry, looked up): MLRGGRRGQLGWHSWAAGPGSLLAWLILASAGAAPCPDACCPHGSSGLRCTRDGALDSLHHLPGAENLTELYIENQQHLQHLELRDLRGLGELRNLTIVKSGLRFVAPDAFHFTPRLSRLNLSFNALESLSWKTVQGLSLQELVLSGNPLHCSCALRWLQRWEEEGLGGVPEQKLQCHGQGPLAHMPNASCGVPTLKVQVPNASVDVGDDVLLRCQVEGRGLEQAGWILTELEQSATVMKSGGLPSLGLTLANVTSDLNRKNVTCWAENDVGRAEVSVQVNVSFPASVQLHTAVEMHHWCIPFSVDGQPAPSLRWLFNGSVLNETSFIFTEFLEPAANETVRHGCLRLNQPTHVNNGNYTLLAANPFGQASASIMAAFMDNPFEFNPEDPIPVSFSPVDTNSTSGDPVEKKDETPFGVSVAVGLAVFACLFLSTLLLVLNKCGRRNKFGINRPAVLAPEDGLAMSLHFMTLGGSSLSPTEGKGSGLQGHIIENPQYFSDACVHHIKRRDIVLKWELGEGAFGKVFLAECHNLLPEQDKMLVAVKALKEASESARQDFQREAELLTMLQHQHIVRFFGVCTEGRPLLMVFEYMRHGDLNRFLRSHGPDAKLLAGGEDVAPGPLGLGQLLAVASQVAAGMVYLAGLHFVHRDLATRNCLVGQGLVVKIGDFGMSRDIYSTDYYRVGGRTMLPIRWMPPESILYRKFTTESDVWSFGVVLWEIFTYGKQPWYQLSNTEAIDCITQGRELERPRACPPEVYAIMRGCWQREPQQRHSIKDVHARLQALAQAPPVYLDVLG
Chain of UniProt P16234 (whole entry, looked up): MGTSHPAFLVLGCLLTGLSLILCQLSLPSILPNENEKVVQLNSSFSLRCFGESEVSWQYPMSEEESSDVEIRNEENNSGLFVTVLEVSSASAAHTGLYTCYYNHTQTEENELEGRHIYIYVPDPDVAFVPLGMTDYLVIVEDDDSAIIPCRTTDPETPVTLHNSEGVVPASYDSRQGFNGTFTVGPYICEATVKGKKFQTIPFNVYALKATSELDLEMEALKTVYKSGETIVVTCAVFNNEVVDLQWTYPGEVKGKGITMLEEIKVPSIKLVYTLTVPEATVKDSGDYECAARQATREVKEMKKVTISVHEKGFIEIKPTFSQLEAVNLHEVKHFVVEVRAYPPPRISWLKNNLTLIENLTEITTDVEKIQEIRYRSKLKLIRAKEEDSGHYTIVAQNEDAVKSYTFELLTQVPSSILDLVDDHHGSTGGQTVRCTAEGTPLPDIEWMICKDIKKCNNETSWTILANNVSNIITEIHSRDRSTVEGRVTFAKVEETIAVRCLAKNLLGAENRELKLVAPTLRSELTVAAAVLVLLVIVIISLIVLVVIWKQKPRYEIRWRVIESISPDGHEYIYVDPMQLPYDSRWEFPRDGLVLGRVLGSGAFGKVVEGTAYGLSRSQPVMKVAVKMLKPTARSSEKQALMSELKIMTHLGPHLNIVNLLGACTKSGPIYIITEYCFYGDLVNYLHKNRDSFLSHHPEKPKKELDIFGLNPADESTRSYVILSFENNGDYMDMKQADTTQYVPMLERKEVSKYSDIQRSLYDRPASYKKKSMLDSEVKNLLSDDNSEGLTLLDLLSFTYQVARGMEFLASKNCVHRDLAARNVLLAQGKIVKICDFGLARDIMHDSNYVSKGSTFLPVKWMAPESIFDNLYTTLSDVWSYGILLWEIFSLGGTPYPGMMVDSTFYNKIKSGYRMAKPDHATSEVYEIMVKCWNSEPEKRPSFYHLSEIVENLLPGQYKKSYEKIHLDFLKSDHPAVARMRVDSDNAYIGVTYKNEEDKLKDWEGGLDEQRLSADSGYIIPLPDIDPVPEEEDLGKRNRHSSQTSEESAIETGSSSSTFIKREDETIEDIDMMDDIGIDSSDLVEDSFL

Series 1
Target: CCND2, cyclin fold, Cln2 fusion (human)
Method: yeast growth competition, sequencing
Sample: yeast
Notes: weak parent motif
Baseline: not given
Direction: higher = stronger binding
Starting sequence: viral docking peptide; KGVKRKLFAEDSS
For `KGVKRKLFMEDSS [A9M]`, “normalised enrichment score” read 0.194.
`KGVKRKLFAQDSS [E10Q]` — result for “normalised enrichment score”: -0.236.
`KGCKRKLFAEDSS [V3C]` — result for “normalised enrichment score”: -0.0405.
`KGVKRKLFNEDSS [A9N]` — result for “normalised enrichment score”: -0.165.
Under “normalised enrichment score”, `KGSKRKLFAEDSS [V3S]` is recorded as -0.156.

Series 2
Target: OGT, full length, His-tagged (human)
Method: phage display, sequencing
Sample: in vitro
Tested at: 1 µg OGT
Notes: single substitutions, 15-mer displayed peptide, unchanged parent 19.6
Baseline: input library
Direction: higher = stronger binding
Starting sequence: peptide; TAPFYPPAYQIQVFK
`F4T` gave a fold enrichment of 11.2 fold.
`Q12Y` has a fold enrichment of 11.2 fold.
With `F14L` the fold enrichment was 15.1 fold.
For `I11W`, the fold enrichment was 0.939 fold.
With `Y5G` the fold enrichment was 1.14 fold.
The fold enrichment of `Y9G` is reported as 0.536 fold.
`Y5S` gave a fold enrichment of 1.1 fold.
With `A8Y` the fold enrichment was 6.66 fold.

Series 3
Target: vanadate, free oxyanion
Method: microfluidic competitive inhibition
Sample: in vitro, cell-free expressed
Tested at: not given
Notes: derived from inhibition constants, unchanged parent 676 nM
Direction: lower = stronger binding
Starting sequence: PafA, mature enzyme, eGFP fusion (Elizabethkingia meningoseptica, UniProt Q9KJX5); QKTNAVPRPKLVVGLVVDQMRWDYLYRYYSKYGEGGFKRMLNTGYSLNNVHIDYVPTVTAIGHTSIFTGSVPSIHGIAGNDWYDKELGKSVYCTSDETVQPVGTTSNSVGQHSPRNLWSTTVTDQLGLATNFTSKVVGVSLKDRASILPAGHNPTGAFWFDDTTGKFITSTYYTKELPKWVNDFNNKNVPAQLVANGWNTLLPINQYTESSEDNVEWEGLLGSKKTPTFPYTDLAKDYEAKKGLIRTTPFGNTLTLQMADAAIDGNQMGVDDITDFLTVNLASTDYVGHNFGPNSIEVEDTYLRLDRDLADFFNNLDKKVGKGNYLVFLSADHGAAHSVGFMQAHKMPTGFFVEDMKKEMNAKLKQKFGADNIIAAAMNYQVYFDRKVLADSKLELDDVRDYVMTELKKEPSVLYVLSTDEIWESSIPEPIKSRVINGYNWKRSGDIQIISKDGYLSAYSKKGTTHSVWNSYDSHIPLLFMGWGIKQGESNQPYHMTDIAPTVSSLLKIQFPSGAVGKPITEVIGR
`Y54V` — result for “oxyanion analog dissociation constant”: 609 nM.
`D308V` — result for “oxyanion analog dissociation constant”: 740 nM.
For `I447V`, “oxyanion analog dissociation constant” read 882 nM.
`V136A`: “oxyanion analog dissociation constant” 512 nM.
For `L396V`, “oxyanion analog dissociation constant” read 825 nM.
For `L364G`, “oxyanion analog dissociation constant” read 611 nM.
Under “oxyanion analog dissociation constant”, `Y24V` is recorded as 885 nM.
Under “oxyanion analog dissociation constant”, `Y494V` is recorded as 663 nM.
For `Y207V`, “oxyanion analog dissociation constant” read 746 nM.
For `G251V`, “oxyanion analog dissociation constant” read 814 nM.
For `T247V`, “oxyanion analog dissociation constant” read 809 nM.
`Q487V` — result for “oxyanion analog dissociation constant”: 610 nM.
For `N49G`, “oxyanion analog dissociation constant” read 585 nM.
Under “oxyanion analog dissociation constant”, `T255G` is recorded as 1.75 µM.
`N199G`: “oxyanion analog dissociation constant” 639 nM.
For `G323A`, “oxyanion analog dissociation constant” read 1.26 µM.
For `A261V`, “oxyanion analog dissociation constant” read 520 nM.
`F184V`: “oxyanion analog dissociation constant” 588 nM.
Under “oxyanion analog dissociation constant”, `V102G` is recorded as 1.02 µM.
Under “oxyanion analog dissociation constant”, `P430G` is recorded as 446 nM.
For `P501V`, “oxyanion analog dissociation constant” read 724 nM.
`S338V`: “oxyanion analog dissociation constant” 735 nM.
For `K357V`, “oxyanion analog dissociation constant” read 759 nM.
`N188G` — result for “oxyanion analog dissociation constant”: 605 nM.
For `D397G`, “oxyanion analog dissociation constant” read 801 nM.

Series 4
Structure (SMILES): COC[C@H]1OC(=O)c2coc3c2[C@@]1(C)C1=C(C3=O)[C@@H]2CCC(=O)[C@@]2(C)C[C@H]1OC(C)=O
Read-out: enzyme activity
Action: inhibitor
Tested at: 0.5 µM
Baseline: control
It gave 93% for remaining activity (Serine/threonine-protein kinase pim-3 (PIM3, Homo sapiens, UniProt Q86V86)).
For Platelet-derived growth factor receptor alpha (PDGFRA, Homo sapiens, UniProt P16234): remaining activity read 97.4%.
The remaining activity was 97.9% (High affinity nerve growth factor receptor (NTRK1, Homo sapiens, UniProt P04629)).

Series 5
Target: BATF3, bZIP domain (human)
Method: DHFR protein complementation
Sample: yeast
Notes: single substitutions, most at no-binding floor
Baseline: wild-type JUN-FOS pair
Direction: higher = stronger binding
Starting sequence: JUN, bZIP domain (human); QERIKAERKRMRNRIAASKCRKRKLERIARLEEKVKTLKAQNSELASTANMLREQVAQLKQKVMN; partner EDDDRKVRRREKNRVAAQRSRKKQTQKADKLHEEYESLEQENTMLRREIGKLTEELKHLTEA
`R30C` has a binding fitness of 0.227 natural log.
`I28E` has a binding fitness of 0.257 natural log.
`I28L` has a binding fitness of 0.243 natural log.
The binding fitness of `S43V` is reported as 0.113 natural log.
With `A46Y` the binding fitness was 0.109 natural log.
For `L52V`, the binding fitness was -0.0202 natural log.
The binding fitness of `E33M` is reported as 0.237 natural log.
With `L52A` the binding fitness was -0.351 natural log.

Other studies, line by line
`PhoQ, residues 284 288 289 292 302 303 SMYGEC` gave a fold induction of 4.42 (PhoP, residues 12 14 15 18 19 GHCSL (Escherichia coli, UniProt P23836); Sort-seq, refers to: YFP reporter; E. coli; PhoQ-PhoP variant library, together with: 10 µM Mg2+; baseline: high Mg2+ state, higher = stronger signaling).

A few entries again (series 3):
For `N49G`, “oxyanion analog dissociation constant” read 585 nM.
For `K357V`, “oxyanion analog dissociation constant” read 759 nM.
For `L396V`, “oxyanion analog dissociation constant” read 825 nM.
`F184V`: “oxyanion analog dissociation constant” 588 nM.
For `I447V`, “oxyanion analog dissociation constant” read 882 nM.
For `Y207V`, “oxyanion analog dissociation constant” read 746 nM.
Under “oxyanion analog dissociation constant”, `T255G` is recorded as 1.75 µM.
